Measured values gathered from unrelated publications.
Numbered parts are unrelated; each lists some results of a single study.

Set 1
Target: RNA binding protein fox-1 homolog 2, RRM domain, GST-SBP tag (RBFOX2, Homo sapiens, UniProt O43251-10, residues 100-194)
Method: RNA Bind-n-Seq
Molecule type: RNA
Sample: in vitro
Tested at: 365 nM
Notes: natural RNA segment, single round, ends assumed
Reference: no-protein control
Direction: higher = stronger binding
Quantity: RBNS enrichment (R)
All sequences stand within: GGGAGUUCUACAGUCCGACGAUC … UGGAAUUCUCGGGUGCCAA
Residues (chain): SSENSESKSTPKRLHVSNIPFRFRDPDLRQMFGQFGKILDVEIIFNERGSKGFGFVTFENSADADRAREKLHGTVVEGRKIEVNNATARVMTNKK
AAAUCCUAGGAAACUGGAGCAACUGGUACAACUGGUCACCUACUCUUGCCCCUCUGUAAAUCAAGCCAACUGUGACCAUCCAAUGUGCCAUCUUACAGGGAAAAGUUAUA: 0.284
GCAGAGGGGCUGAAUAGCAGAAGGUUGCACCUCCCCCAACCUUAGAUGUUCUAAGUCUUUCCAUUGGAUCUCAUUGGACCCUUCCAUGGUGUGAUCGUCUGACUGGUGUU: 0.413
UCCCCCAAGGUCUCUCCAUUCCAGUUUGGUCAAAUCUGCCAGUGCACUUUGUUAGAUGUAAAAUAAACCACGGGCCUUCCACAUGGGGUGACCCCCGCCCUGUCCCUUUC: 1.94
UCCUAUUCAAAUUUAUUUGACGUUUUAUUUUGGUUUUCCUCACCCCCUCAAACUGUCGGGGAGACCCUGCCCUUCACCUAGCUCCCUUGGCCAGGAAUGAGGGAGCCAUG: 0.99
AGUGGAGGGAACUCAGUGGAGGAUGUGCCCAGCAGUGGCCGGGGCUGCUUCUGUAACCAAGGUCUGGCAGAGUAGCGAUUCCCUGCGUGUUCAGGAAGGGCCCAUUGUGU: 0.717
GUAGUACUAAAUGGUAUCCUUAGAUUAAAAUUUUGUGCUUGAUAACAGCUGUUUUUUCUACAUUAGAAAUAAGAUGCCACACAAGGAACUACAUUCCAGAUUUAAAGAAA: 0.305
CCUACAUCAAUUAGUUAUUGGACUUCACAAAGAUUUGCCGCUGUGGAUCAAACAGGACCACCUCCCUCUGCGUCAGCCAUUUAAAAUUGGGGGAGGGAAGAGAUCCAGUG: 0.398
GAAUAGUACUUUAUAUUCUUUAUCAUACCACUUUUGUAAGUGUUGAAUAUAUUGCUGUUUAUUUUUCUAUGUUCUGUUUCGUAGCCUUAAGAAGUGUUUCAAACGAUCUG: 0.376
CAUUUUGUUUUUUUAAGAAAAAGAAAAUGAAAGGAAAAAAAUAAAAGAUCCAGUGUCUUUCUUACAACAUAUUCUUUUAUUGCAACAUUUUCCUCAGUUUGGAAAACUGU: 0.551
UGAGUGAAGUGGCUGCAACUUGGCAGCCCCAAAACCUGCCACACCCCUGCACCCCUGGAAGCCCAGCACCGGGGCCAGCAGGCUGUGUUCCGUGCUUGCCAACCUAGACC: 0.318
AGCCUGAAACGCACCGCUCCUGCGUGCGCCCCCACCUGGUCCCCGGAUGCCCCCACCACCUGGACAGAGGCCACACUGACUGCCCACCCAGCUGUGGCGGGAGGUGCAGA: 0.191
UUAGAUUAUAUAUUCCGCACUCAAGGAGUAACCAGGUCGUCCAAGCAAAAACAAAUGGGAAAAUGUCUUAAAAAAUCCUGGGUGGACUUUUGAAAAGCUUUUUUUUUUUU: 0.738

Set 2
Target: RING finger protein unkempt homolog, zinc fingers 1-6, SBP tag (UNK, Homo sapiens, UniProt Q9C0B0, residues 30-357)
UniProt Q9C0B0, sequence (30-357, looked up): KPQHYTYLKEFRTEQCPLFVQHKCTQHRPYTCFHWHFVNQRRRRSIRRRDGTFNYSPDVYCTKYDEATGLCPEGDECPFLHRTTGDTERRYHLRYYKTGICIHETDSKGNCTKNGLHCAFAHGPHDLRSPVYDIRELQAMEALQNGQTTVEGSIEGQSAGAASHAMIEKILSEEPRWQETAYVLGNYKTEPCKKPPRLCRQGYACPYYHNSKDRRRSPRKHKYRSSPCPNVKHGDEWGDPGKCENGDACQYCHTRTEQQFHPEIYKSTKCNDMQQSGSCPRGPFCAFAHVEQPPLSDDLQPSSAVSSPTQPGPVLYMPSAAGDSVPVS
Method: RNA Bind-n-Seq
Molecule type: RNA
Sample: in vitro
Tested at: 100 nM
Notes: RNA with constant flanks, vertebrate orthologous sites, ends assumed
Reference: input RNA pool
Direction: higher = stronger binding
Quantity: bound/input enrichment
All sequences stand within: GGGAGUUCUACAGUCCGACGAUC … CAACAGAGGAUUGAGCAUCA
AGCUUCUGGCGACAUUUGGCCUGGCCUUUCAGCCUAUGAUAACAGUCCAAGGUCACCCCAUAGUCCUUCCAUUGCCUCCCCACCUAGUCAGAGUUCAUCUUGCUCUGAUGCCCCUCUGCU: 0.754 ratio
UUAAAGCCAUUUUUUCAUGUUUCCUGUAAAUAAUGGAUAAUCAUUUUUUAUUUUAUUUUUAAGUGCUGUUUUAACAACGUGGAUAGACUGUAAAUGUACUUGCUGAAUUCAUUCGUUUUU: 0.686 ratio
UGCAUUAUUUGACCAGAGUUGAAGUGACAGAGUUUGAAGAUAUUAAAUCAGGUUACAGAAUAGAUUUUUAUUUUGAUGAAAACCCUUACUUCGAAAAUAAAGUUCUCUCCAAAGAAUUUC: 0.296 ratio
ACAGCCCUUGUGAGAGGGAGUUUGGGGCAGCCCAGGGUGUGGCCCUCAGCUGUUUCGAUCCAGUUGUUUUUUUUUAAACUUACUGUAUUUAUUACGACGAUGAUGACUCCCCCGUGCACA: 0.235 ratio
GUGUUGGUGCAGAGUGCUCUGUACCAGUGCUCAUCAUCCCUUCUUCAUACCAACGGUCCCUAGUUAUAGGAAUUUAAUAUUUUUAAAAGUUUUACAUUGCUGUAUAUUCAAAGAUUUGUU: 0.588 ratio
GCACAUGCCGCUAUCACCAAAAGCAAAUUGUCAUUUUUCAGAUAUCAUUCAGAGCCGUUUUAGUGUUUCCUACUCCCUGCCCUUCCCAUUACUUUCAAUGAUGAAAGUUCUCCUCUGACA: 1.16 ratio
UUUUAUUGAUCAGGUCUGUAAAUGUGUACUAAAAAAAUCAGAGUUUAUUUAUGAAUUGAAUAGUUUAUUUAAAAAGAAGGUCUUUCCUCAUCCAUAUUGUGGUAUGCAUUAAUUCCAUUU: 0.421 ratio
UUUUAUUGAUCAGGUCUGUAAAUGUGUACUAAAAAAAUCAGAGUUUAUUUAUGAACUGAAUGGUUUAUUUAAAAAGAAGGUCUUUCCUCAUCCAUAUUGUGGUAUGCAUUAAUUCCAUUU: 0.197 ratio
AGAAAAUUUUAACCAAGAAUCUGAAAGUAGAAAUACAGGACCAUGGUUAUCUUCCUCACUUAGAAAUAGAUGCACACCUUUGUUCUCUAGAAGGAGGCGAGAGGGAAGAGAUGAAUCUUC: 0.782 ratio
GAAACUCCCCAUUGUCACUGAGAACCACCAAAUCUGACUUUUACAUUUGGUCUCAGAAUUUAGGUUCCUGCCCUGUUGGUUUUUUUUUUUUUUUUAAACAGUUUUCAAAAGUUCUUAAAG: 0.873 ratio
CCCGCACGCCCCCUGGGAGGGCGUGGGGGAGGGGAGCCUGAUGACUCAGCUGGUCCAAUACGGUACUUUAUUUCCUUUUUUUUUUAAAUCACUGUAUUUAUUAUGACAAUGGUGACUCCC: 0.362 ratio

Set 3
Target: Histone acetyltransferase KAT6A, winged helix 2, GST fusion (KAT6A, Homo sapiens, UniProt Q92794, residues 85-181)
Method: protein binding microarray
Molecule type: double-stranded DNA, one strand shown
Sample: in vitro
Tested at: not given
Notes: 8-mer, flanks averaged, mean of 2 arrays, mostly near background
Reference: not given
Direction: higher = stronger binding
Quantity: E-score
Residues (chain): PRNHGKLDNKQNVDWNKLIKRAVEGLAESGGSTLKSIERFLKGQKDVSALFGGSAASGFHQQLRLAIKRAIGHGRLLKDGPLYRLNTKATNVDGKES
GGGGGACA: 0.125
CGGCTGCC: 0.204
CGAAGCAG: 0.0883
GATATGCA: -0.0799
CAATTCGG: -0.0969
CAAGACCA: -0.0853
ACCCACAA: 0.145
CACTTCCA: -0.0806
GCGAGTGA: 0.188
AAACGCGA: -0.149
ATTTCCTG: 0.161
ACGCCGGA: 0.155
GTGCAAGA: 0.0782
GTTATCAA: -0.0112
AACCTGTA: -0.138
ATATTATG: 0.0835
AACGTGCT: -0.172
TGTTGAAA: -0.0246
AAGGCATT: 0.0509
ATTGAATC: -0.151
AACCTGTC: -0.179
GCTGGTCA: 0.0901
ACAATGGA: 0.052
ATTACAAT: -0.0668
GGCTAGTA: 0.0183

Set 4
Target: Centromere-binding protein 1, full length, His-tagged (CBF1, Saccharomyces cerevisiae, UniProt P17106, residues 1-351)
UniProt P17106, sequence (whole entry, looked up): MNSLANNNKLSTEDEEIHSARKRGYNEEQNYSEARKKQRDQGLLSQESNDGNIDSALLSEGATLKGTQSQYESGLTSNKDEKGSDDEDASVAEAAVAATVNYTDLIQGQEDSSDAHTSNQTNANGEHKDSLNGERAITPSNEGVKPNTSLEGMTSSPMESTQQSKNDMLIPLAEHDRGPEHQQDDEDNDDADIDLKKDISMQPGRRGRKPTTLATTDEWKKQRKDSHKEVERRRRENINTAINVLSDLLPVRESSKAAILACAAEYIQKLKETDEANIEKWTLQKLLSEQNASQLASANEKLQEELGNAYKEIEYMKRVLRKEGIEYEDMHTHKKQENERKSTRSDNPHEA
Method: competition protein-binding microarray
Molecule type: double-stranded DNA, one strand shown
Sample: in vitro
Tested at: 2 µM
Notes: whole 60-bp probe, lowest competitor level
Together with: Pho4 competitor, 0.05 µM
Direction: higher = stronger binding
Quantity: fluorescence intensity
All sequences stand within: … GTCTTGATTCGCTTGACGCTGCTG
CTAACGAAGGTTTGTTAGGTGGGTGACAAGCCAAGT: 63 a.u.
CTCTCGATGGGCCATCACGTGAAGTAGGCACTATCA: 2180 a.u.
CTTCTGTAAATTTGCCGCGTGGGTGGACGCGCCCCG: 89.1 a.u.
GTCTTGTCTCATTGTTCAGTGGGTGTCCCCACTTCA: 79 a.u.
AAAGCGGTAATTTGTCACAACACTTCACATATCTAT: 105 a.u.
AAGCTAAAGCAGAGGAACGTGACGGACGCGCATTAA: 264 a.u.
TTTTATCTCCGATAGTACGTGGGACTTTATTTATGG: 77.3 a.u.
GAAGCACTTGCCTTCACCGTGCGGAGCGTCGAATTG: 57.6 a.u.
TGGCATTCGTCTACCCACGTCTTGGGTGAATCTTGT: 54.5 a.u.
CTTTCCCGATCTTGTCACCAGACTTTAGCACATTTG: 94.1 a.u.
GTCTTGTCTCATTTTCACGTGGATTTCCCCACTTCA: 417 a.u.
AAATTACTAAGTTGGCCTGTGGGTGACGCCGTATGA: 63.7 a.u.
GACTAGGTTTGAAAGCACGTTGGAAGACATACGGAA: 99.4 a.u.
CGCGCAAGTGTTCACCACGTAATCGCATCGCCCCTC: 62.2 a.u.
CGTCCTAGTGATTGGAACGTGGGTGCCATGAGGAAG: 93 a.u.
AAATTACTAAGTTGCTGTGTGGGTGACGCCGTATGA: 65.5 a.u.
AGTGCAGTGGAAAAGCACGCTTACTCTACGGATGAG: 58.3 a.u.
CGGGGTTAAGTTTTTCACGTGGTTTGCTTGCAGCAG: 970 a.u.
GGATCCCATCCAACACACGTGTTGAAATGACATCAG: 1060 a.u.
AAAGCGGTAATTTGCCCTGTGGGTGCAGATATCTAT: 67.4 a.u.
GTCTTGTCTCATTTTCACGTGGGGTTCCCCACTTCA: 521 a.u.
AAAGCGGTAATTTGTCACTCGACTTCACATATCTAT: 78.9 a.u.
GAGTTTGTTTTCCTTCACATGATGAAGAAGGTTTGA: 287 a.u.
CTAACGAAGGTTTTTCACGTGATATACAAGCCAAGT: 3110 a.u.
AAAGCGGTAATTTCACACGTGTTTTCACATATCTAT: 1650 a.u.

Some of these lines once more (set 3):
TGTTGAAA: -0.0246
AACGTGCT: -0.172
ATTACAAT: -0.0668
GTGCAAGA: 0.0782
ATTGAATC: -0.151
AACCTGTA: -0.138
